Results from different studies.
Protocols differ between the studies behind these lines. “And” joins repeats or separate records; there may be more than shown. ± marks the error that the study gave. ≈ marks a conversion by molar mass, not a printed value.

| SMILES | tested on | assay | system | setting | scale | endpoint | result |
| --- | --- | --- | --- | --- | --- | --- | --- |
| Cc1ncsc1-c1ccc(C(C)NC(=O)C2CC(O)CN2C(=O)C(NC(=O)CCCCCCCCCCN2CCCC(Nc3ncc(Cl)c(Nc4ccccc4S(=O)(=O)C(C)C)n3)C2)C(C)(C)C)cc1 (stereo not drawn) | 22Rv1 | RNA-seq, measured: ZNF772 mRNA | – | concentration not given | baseline: DMSO | log2 fold change | -1.31 |
| CC1C=CC=CC(C)C2C=CC3CC(C)(O)C(Cl)C(C)C3C2C(=O)C(Cl)(Cl)C(=O)C(C)C(=O)O1 (stereo not drawn) | Staphylococcus aureus | – | MRSA clinical isolate | resistant: OXA,CIP,ERY,GEN,LVX,MXF,SXT,TOB | – | MIC | 0.05 mg/L (≈ 0.094 µM) |
| CC[C@H](C)[C@H](NC(=O)[C@@H]1CCCN1C(=O)[C@H](CCSC)NC(=O)[C@H](CC(C)C)NC(=O)[C@H](Cc1ccccc1)NC(=O)[C@H](Cc1ccc(O)cc1)NC(=O)[C@@H]1CCC(=O)NCC(=O)NCC(=O)NCC(=O)NCC(=O)N2CCC[C@H]2C(=O)N[C@@H]([C@@H](C)O)C(=O)N2CCC[C@H]2C(=O)N1)C(=O)N[C@@H](CC(=O)O)C(=O)N1CCC[C@H]1C(=O)N[C@@H](C)C(=O)N[C@@H](Cc1c[nH]c2ccccc12)C(=O)N[C@@H](CC(C)C)C(=O)N[C@@H](CCC(N)=O)C(=O)N[C@@H](C)C(=O)N[C@@H](CC(N)=O)C(=O)N[C@@H](CC(C)C)C(=O)N1CCC[C@H]1C(=O)N[C@@H](CC(N)=O)C(=O)N[C@H](C(=O)NCC(=O)N[C@@H](CCCCN)C(=O)N[C@@H](Cc1ccc(O)cc1)C(=O)N[C@@H](CC(N)=O)C(=O)O)[C@@H](C)O | Bacillus subtilis | spot-on-lawn | 168 | concentration not given, 30 °C | – | antimicrobial activity | inactive |
| Cc1cc(C(=O)Nc2nc3cccc(C)c3n2[C@H]2CCCCN(C(=O)/C=C/CN(C)C)C2)ccn1 | Trypanosoma brucei | wash-off | – | 48 h | – | minimum cidal concentration | 16.7 µM |
| CCCCC(CSS(=O)(=O)O)NCC(C)C (stereo not drawn) | Schistosoma mansoni | – | infected mice | 100 mg/kg x4, dosed from day 11, perfusion day 25 | baseline: vehicle | worm burden reduction | -12% |
| C=C(NC(=O)c1csc(-c2nc3c(cc2O)-c2nc(cs2)C(=O)NC(C(C)O)C(=O)NC(=C(C)OC)c2nc(cs2)C(=O)NC2c4nc(cs4)C(=O)NC(COC(=O)c4c5c6c(cccc6n4O)COC(=O)C(OC4CC(C)(O)C(N(C)C)C(C)O4)C2OC5)c2nc-3cs2)n1)C(N)=O (stereo not drawn) | Streptococcus pneumoniae | – | -25, immunocompromised mice, lung infection | 32 mg/kg/day, twice daily, 24 h post-dose | – | lung bacterial load | 3.89 log CFU/g |
| Cc1c(CC(=O)N[C@@H](Cc2ccccc2)C(=O)N(C)c2ccc(Cl)cc2)c2ccccc2n1C(C)C | HIV-1 | infectivity of progeny virus | HEK293FT, NL4-3 | – | – | EC50 | 0.74 ± 0.07 µM |
| C=C[C@]1(C)C[C@@H](OC(=O)CSc2ccc(NC(=O)c3ccco3)cc2)[C@]2(C)[C@H](C)CC[C@]3(CCC(=O)[C@H]32)[C@@H](C)[C@@H]1O | Mycoplasma gallisepticum | sigmoid Emax model, Cmax/MIC | infected chickens | – | – | Emax | -1.09 log10 CFU/mL |
| CN(C(=O)[C@H](Cc1ccccc1)NC(=O)Cc1c[nH]c2ccc(O)cc12)c1ccc(Cl)cc1 | HIV-1 | infectivity of progeny virus | HEK293FT, NL4-3 | – | – | EC50 | 0.17 ± 0.02 µM |
| C#CCN1CCC(N2C(c3ccc(OC)cc3)=Nc3ccc(F)cc3C2c2ccccc2)CC1 (stereo not drawn) | Naegleria fowleri | – | ATCC 30215 | concentration not given | – | growth inhibition | inactive |
| CCCCCCCCCC(=O)N[C@@H](Cc1c[nH]c2ccccc12)C(=O)N[C@H](CC(N)=O)C(=O)N[C@@H](CC(=O)O)C(=O)N[C@@H]1C(=O)NCC(=O)N[C@@H](CCCNC(=O)OC2/C=C/CCCCC2)C(=O)N[C@@H](CC(=O)O)C(=O)N[C@H](C)C(=O)N[C@@H](CC(=O)O)C(=O)NCC(=O)N[C@H](CO)C(=O)N[C@@H]([C@H](C)CC(=O)O)C(=O)N[C@@H](CC(=O)c2ccccc2N)C(=O)O[C@@H]1C (stereo partly drawn) | Staphylococcus aureus | isothermal microcalorimetry | MRSA | 3.0 µg/mL, 24 h, 37 °C | – | peak heat flow | 0 µW |
| C#CCNC(=O)C1(O/N=C(\C(=O)N[C@@H]2C(=O)N(OS(=O)(=O)O)C2(C)C)c2csc(N)n2)CC1 | Proteus mirabilis | agar dilution | ATCC 49565 susceptible | – | – | MIC | 0.25 mg/L (≈ 0.499 µM) |
| Cc1ccc(N(C)C(=O)[C@H](Cc2ccccc2)NC(=O)Cc2c[nH]c3ccc(O)cc23)cc1 | HIV-1 | viral replication | – | – | – | EC50 | 0.035 ± 0.004 µM |
| CC(=O)OC[C@H]1O[C@@H](Sc2sc(C(=O)c3ccc(Cl)cc3)c(N)c2-c2nc3ccccc3s2)[C@H](OC(C)=O)[C@@H](OC(C)=O)[C@@H]1OC(C)=O | hepatitis A virus | plaque reduction | HM 175 | non-toxic concentration | – | viral titre reduction | 10% |
| COC1C=COC2(C)Oc3c(C)c(O)c4c(c3C2=O)C2=NC3(CCN(CC(C)C)CC3)NC2=C(NC(=O)C(C)=CC=CC(C)C(O)C(C)C(O)C(C)C(OC(=O)Nc2cccnn2)C1C)C4=O (stereo not drawn) | Mycobacteroides abscessus | bacterial growth | subsp. abscessus Bamboo | – | – | IC50 | 0.024 µM |
| CC(=O)O[C@@H]1[C@@H](OC(C)=O)[C@H](Sc2sc(C(=O)c3ccc(Cl)cc3)c(N)c2-c2nc3ccccc3s2)OC[C@H]1OC(C)=O | hepatitis A virus | plaque reduction | HM 175 | non-toxic concentration | – | viral titre reduction | 10% |
| CC1=C(Cn2cc(CN3CCC(=O)CC3)nn2)C(=O)c2ccccc2C1=O | Schistosoma mansoni | – | adult worms | 10 µM, 72 h | – | killing | 47.2% |
| O=C(Nn1c(-c2cccc(Cl)c2)nc2ccccc2c1=O)c1ccccc1 | Schistosoma mansoni | – | infected mice | intraperitoneal, 50 mg/kg 1 times daily for 3 days, 72 h | – | worm burden reduction | 70% |

| SMILES | tested on | assay | system | setting | scale | endpoint | result |
| --- | --- | --- | --- | --- | --- | --- | --- |
| Cc1ccc(C(=O)c2sc(S)c(-c3nc4ccccc4s3)c2N)cc1 | hepatitis A virus | plaque reduction | HM 175 | non-toxic concentration | – | viral titre reduction | 20% |
| CC(C)NCC(SS(=O)(=O)O)c1ccccc1 (stereo not drawn) | Schistosoma mansoni | – | mice | daily x4, 100 mg/kg, from day 11, perfusion day 25 | – | total worms recovered | 46 worms per mouse and 26 worms per mouse and 21 worms per mouse |
| FC(F)(F)c1cccc(CNc2nc(NC3CCN(Cc4ccccc4)CC3)c3nc[nH]c3n2)c1 | Cryptococcus neoformans | RNA-seq, measured: CNAG_06065 mRNA | – | 48 µg/mL, 3 h | baseline: untreated wild type | log2 fold change | -0.892 |
| CCn1c(C)c(CC(=O)N[C@@H](Cc2ccccc2)C(=O)N(C)c2ccc(Cl)cc2)c2ccccc21 | HIV-1 | infectivity of progeny virus | HEK293FT, NL4-3 | – | – | EC50 | 0.67 ± 0.2 µM |
| CC(C)(C)NCC(SS(=O)(=O)O)c1ccccc1 (stereo not drawn) | Schistosoma mansoni | – | mice | 600 mg/kg single dose, dosed day 7, perfused 44 | – | male worms recovered | 36 worms per mouse and 14 worms per mouse and 11 worms per mouse and 21 worms per mouse and 18 worms per mouse |
| CC(=O)O[C@@H]1[C@@H](OC(C)=O)[C@H](Sc2sc(C(=O)c3ccc(Br)cc3)c(N)c2-c2nc3ccccc3s2)OC[C@H]1OC(C)=O | hepatitis A virus | plaque reduction | HM 175 | non-toxic concentration | – | viral titre reduction | 20% |
| CCn1c(C)c(CC(=O)N[C@@H](Cc2ccccc2)C(=O)N(C)c2ccc(F)cc2)c2ccccc21 | HIV-1 | infectivity of progeny virus | HEK293FT, NL4-3 | – | – | EC50 | 0.54 ± 0.03 µM |
| CC1(C)NC(=O)N(c2ccc(F)c(C(C)(F)F)c2)C1=O | Schistosoma mansoni | – | juvenile stage, infected mice | oral, single dose | – | ED50 | 51 mg/kg |
| OC(Cn1cncn1)(Cn1cc(-[c-]2cccc2)nn1)c1ccc(F)cc1F.[Cl-].[Co+3].c1cc[cH-]c1 (racemic) | Brugia pahangi | motility, Worminator | adult female | 50 µM, 0 d | – | inhibition | 22% |
| CC(=O)OC[C@H]1O[C@@H](Sc2sc(C(=O)c3ccc(C)cc3)c(N)c2-c2nc3ccccc3s2)[C@H](OC(C)=O)[C@@H](OC(C)=O)[C@H]1OC(C)=O | hepatitis A virus | plaque reduction | HM 175 | non-toxic concentration | – | viral titre reduction | 20% |
| CCCOC(=O)N1c2cc(CNC)ccc2[C@H](NC(=O)C(=O)Nc2ccc(Cl)c(F)c2)[C@H]1CNC(=N)N | HIV-1 | pseudovirus infection, Env pseudovirus neutralisation | TZM-bl, clade C T/F isolate 2A2 | – | – | IC50 | 11 µM |
| CCN(CC)CC#CCNc1ccnc2cc(Cl)ccc12 | Plasmodium falciparum | – | RF12 | – | – | IC50 | 0.0785 µM |
| C[C@@H]1C(=O)O[C@@H](C)/C=C/C=C\[C@@H](C)[C@@H]2C=C[C@@H]3C[C@@]4(C)O[C@H]4[C@@H](C)[C@H]3[C@@H]2C(=O)C(Cl)(Cl)C1=O | Staphylococcus aureus | – | MRSA clinical isolate | resistant PEN/CIP/MXF | – | MIC | 0.1 mg/L (≈ 0.202 µM) |
| Cc1cccc2c1N(C(=O)n1ccnn1)CC2 | Arabidopsis thaliana | – | kai2 mutant, seeds | 1 µM, 72 h | – | germination rate | 72% and 75% and 67.4% and 64.5% and 60% and 74.3% |
| CC1=C(Cn2cc(CN3CCC(F)(F)CC3)nn2)C(=O)c2ccccc2C1=O | Schistosoma mansoni | – | adult worms | 25 µM, 48 h | – | killing | 44.6% |
| C=CS(=O)(=O)c1ccccc1 | Taenia solium | trypan blue uptake | viable cysts in vitro | 50 µg/mL | – | cysticidal efficacy | 100% |
| CC(=O)OC[C@H]1O[C@@H](Sc2sc(C(=O)c3ccc(Br)cc3)c(N)c2-c2nc3ccccc3s2)[C@H](OC(C)=O)[C@@H](OC(C)=O)[C@@H]1OC(C)=O | hepatitis A virus | plaque reduction | HM 175 | non-toxic concentration | – | viral titre reduction | 40% |
| O=C(NCC(O)(Cn1cncn1)c1ccc(F)cc1F)[c-]1cccc1.[Cl-].[Co+3].c1cc[cH-]c1 (racemic) | Brugia pahangi | motility, Worminator | adult female | 50 µM, 3 d | – | inhibition | 0% |

Some of these lines once more:
| SMILES | tested on | assay | system | setting | scale | endpoint | result |
| --- | --- | --- | --- | --- | --- | --- | --- |
| Cc1cccc2c1N(C(=O)n1ccnn1)CC2 | Arabidopsis thaliana | – | kai2 mutant, seeds | 1 µM, 72 h | – | germination rate | 72% and 75% and 67.4% and 64.5% and 60% and 74.3% |
| C=C[C@]1(C)C[C@@H](OC(=O)CSc2ccc(NC(=O)c3ccco3)cc2)[C@]2(C)[C@H](C)CC[C@]3(CCC(=O)[C@H]32)[C@@H](C)[C@@H]1O | Mycoplasma gallisepticum | sigmoid Emax model, Cmax/MIC | infected chickens | – | – | Emax | -1.09 log10 CFU/mL |
| Cc1c(CC(=O)N[C@@H](Cc2ccccc2)C(=O)N(C)c2ccc(Cl)cc2)c2ccccc2n1C(C)C | HIV-1 | infectivity of progeny virus | HEK293FT, NL4-3 | – | – | EC50 | 0.74 ± 0.07 µM |
| O=C(NCC(O)(Cn1cncn1)c1ccc(F)cc1F)[c-]1cccc1.[Cl-].[Co+3].c1cc[cH-]c1 (racemic) | Brugia pahangi | motility, Worminator | adult female | 50 µM, 3 d | – | inhibition | 0% |
| CCn1c(C)c(CC(=O)N[C@@H](Cc2ccccc2)C(=O)N(C)c2ccc(Cl)cc2)c2ccccc21 | HIV-1 | infectivity of progeny virus | HEK293FT, NL4-3 | – | – | EC50 | 0.67 ± 0.2 µM |
